Measurements of several laboratories.
Compare with care: the assays were run in different laboratories. Numbers after ± are the reported error.

For `COc1cc(-c2nc3ccccc3s2)cc(CN(Cc2ccccn2)Cc2ccccn2)c1O`, the pKa1 was 4.88 (methanol-water; 50 µM, 0.1 M NaCl).
With `C=C(c1cc(F)c(C(=O)O)c(F)c1)c1cc2c(cc1C)C(C)(C)CCC2(C)C` the LDL level was 13 ± 3.6 mg/dL (Sprague-Dawley rat, male, plasma; oral, 100 mg/kg, 3 h, sesame oil vehicle).
`COCC1CN(C2CCN(c3cc(OC)c(Nc4ncc(Br)c(Nc5ccc6c(c5P(C)(C)=O)OCCO6)n4)cc3C)CC2)C1`: “grade ≥3 treatment-related diarrhoea” 3.7% (human; oral, 10 to 240 mg once daily).
For `Cc1ccc(NCC(=O)N2CCNCC2)cc1S(=O)(=O)N1CCOCC1`, the kinetic solubility was > 250 µM (water).
`CCCC[C@H](NC(=O)CNC(=O)CNC(=O)CN1CCN(CC(=O)O)CCN(CC(=O)O)CCN(CC(=O)O)CC1)C(=O)N[C@H]1CC(=O)NCCCC[C@@H](C(N)=O)NC(=O)[C@H](Cc2c[nH]c3ccccc23)NC(=O)[C@H](CCCNC(=N)N)NC(=O)[C@@H](Cc2ccccc2)NC(=O)[C@H](Cc2c[nH]cn2)NC1=O` [gallium-67 labelled] — result for “tumour to tissue ratio”: 76 (female C57 mice, B16/F1 melanoma; intravenous, 0.037 MBq, 2 h; reference: tumour over muscle).
For `COc1ccc2cc(-c3ccc(-c4ccc(C)cn4)nc3)oc2c1`, the absorption maximum was 373 nm (aqueous HEPES buffer; pH 7.4, zinc(II) complex).
The clearance of `CC(C)[C@H](NC(=O)CNC(=O)[C@H](CCC(N)=O)NC(=O)[C@H](C)N)C(=O)O` is reported as 900 mL/min/kg (LC-MS/MS; human, male, plasma; intravenous, 30 mg/kg three times daily, day 2, first dose, 10 min infusion, geometric mean).
Under “long-term stability change”, `COc1ccc(-c2csc(N/N=C(\C)c3cc(O)cc(O)c3)n2)cc1` is recorded as -0.27% (LC-MS/MS; rat plasma; 3.75 ng/mL, 45 days, -20 °C).
For `CCn1c(=O)n(CCO)c(=O)c2c1nc(/C=C/c1ccc(OC)c(OC)c1)n2C`, “change in Cmax” read 14% (healthy humans, plasma; oral, 40 mg, added: rifampin 600 mg/day; reference: without rifampin).
For `C[Si](C)(C)C[C@H](CN)CC(=O)O`, the performance time was 180 s (neuromuscular coordination; Wistar rat male; oral, 300 mg/kg, 1 h).
`Cc1ccc(C(C)C)cc1.O=C(N=P(c1ccccc1)(c1ccccc1)c1ccccc1)c1ccccn1.[Cl-].[Cl-].[Ru+2]` — result for “absorption rate constant”: 1.39 h⁻¹ (ICP-MS, refers to: ruthenium; NOD.CB17-Prkdc scid/J mouse, plasma; intraperitoneal, 5 mg/kg, after first dose).
`CCCC[C@H](NC(C)=O)C(=O)N[C@H]1CC(=O)NCCCC[C@@H](C(=O)N[C@@H](C(=O)N2CCC[C@@H]2C(N)=O)C(C)C)NC(=O)[C@H](Cc2c[nH]c3ccccc23)NC(=O)[C@H](CCCN=C(N)N)NC(=O)[C@@H](Cc2ccc3ccccc3c2)NC(=O)[C@@H]2CCCN2C1=O` has a plasma histamine of 15.7 ng/mL (healthy dogs, plasma; subcutaneous, 2.25 mg/kg per day, day 28, 1 h post-dose, median).
`CC(C)CC(=O)C(=O)C(O)CO` (stereo not shown): “surface tension decrease” ~17 mN/m (aqueous buffer; 1 to 5 mM, pH 7.4).
`CC12CC(c3ccc(S(C)(=O)=O)cc3)C3=C4CCC(=O)C=C4CCC3C1CCC2(O)C(F)(F)C(F)(F)F` (stereo not shown) has a Tmax of 2.5 h (human, plasma; oral, 4 mg, single dose).
With `COc1cc2c(cc1OC)CN(CCCCn1ccc3cc(OCC[18F])ccc31)C2` the radiochemical purity was > 99% (mouse serum; 2 h, 37 °C).
`COC1CN([C@H]2CC[C@H]([C@@]3(C)Oc4c(Cl)cc(C(=O)NCc5c(SC)cc(C)[nH]c5=O)c(C)c4O3)CC2)C1`: tolerability “not toxic” (human, advanced tumours, phase I; oral, dose not given, once daily dosing).
`COC(=O)c1ccc(-c2cn(Cc3cc(Cl)ccc3O[11CH3])nn2)cc1` gave a distribution volume of 0.552 mL/cm³ (PET, Logan plot, t*=40 min; rhesus monkey, brain Amygdala; dose not given).
For `Cc1ccc(/N=N/c2c(O)ccc3ccccc23)c(C)c1`, “freeze-thaw stability deviation” read 0.9% (rat whole blood; 16.0 µg/L, freeze-thaw cycle 3).
For `Cc1[nH]c(/C=C2\C(=O)Nc3ccc(F)cc32)c(C)c1NC(=O)CCN1CCN(C)CC1`, the AUC(0-inf) was 852 ± 230 ng·h/mL (Beagle dog, both sexes, plasma; oral, 3 mg/kg).
The absorption maximum of `COc1ccc(/C=C/c2ccc(-c3ccc(C)cn3)nc2)cc1` is reported as 374 nm (acetonitrile; zinc complex).
Under “GSH adduct formation”, `C#CC(C)NC(=O)C(CC(C)(C)F)NC(c1ccc(-c2ccc(S(C)(=O)=O)cc2)cc1)C(F)(F)F` (stereo not shown) is recorded as 2% (LC-MS UV trace; aqueous buffer; 23 h, pH 7.5, 37 °C, added: GSH 5 mM).
`Cc1cc2c(cc1C1(c3ncc(C(=O)O)cn3)CC1)C(C)(C)CCC2(C)C` gave an LDL level of 27 ± 3.5 mg/dL (Sprague-Dawley rat, male, plasma; oral, 100 mg/kg, 1 h, sesame oil vehicle).
Under “absorbed radiation dose”, `[11CH3]c1ccc2nc(C3CCC3)n(-c3ccc4[nH]ncc4c3)c2n1` is recorded as 3.4 µSv/MBq (standard human adult, pancreas).
For `O=C(NC1CC1)N1CC=C(c2cc3c(Nc4cc5ncsc5cc4F)ncnc3s2)CC1`, the intrinsic clearance was < 12 mL/min/g protein (human liver microsomes; 1 µM).
For `NCC(=O)N1CCC[C@H]1C(=O)N1C[C@H](O)C[C@H]1C(=O)O`, the log beta was 30 (potentiometric titration; 25 °C, MA3 complex, added: Fe(III)).
With `COC(=O)CN1CCN(CC(=O)OC)CCN(Cc2cc(-c3nc4ccccc4s3)cc(OC)c2O)CC1` the pKa1 was 4.21 (UV-Vis pH titration; 25 °C, ionic strength 0.1 M NaCl).
`CC[C@H](C)[C@H](NC(=O)[C@H](C)NC(=O)[C@H](CC(N)=O)NC(=O)[C@H](CCCNC(=N)N)NC(=O)[C@H](CCCNC(=N)N)NC(=O)[C@H](CC(N)=O)NC(=O)[C@H](CCCNC(=N)N)NC(=O)[C@H](CCCNC(=N)N)NC(=O)[C@H](C)NC(=O)[C@@H](NC(=O)[C@H](CO)NC(=O)[C@@H](NC(=O)[C@@H](NC(=O)[C@H](CS)NC(=O)[C@H](CCCCN)NC(=O)[C@@H](N)CCCNC(=N)N)C(C)C)[C@@H](C)CC)C(C)C)C(=O)N[C@@H](CCCCN)C(=O)N[C@H](C(=O)N[C@@H](CC(C)C)C(=O)N[C@@H](CS)C(=O)N[C@@H](CC(N)=O)C(=O)O)[C@@H](C)CC` — result for “single disulfide form”: 33% (LC-MS; PBS; 0.1 mg/mL).
`[2H]C([2H])([2H])NC(=O)c1ccc(N2C(=S)N(c3ccc(C#N)c(C(F)(F)F)c3)C(=O)C2(C)C)cc1F` gave an MRT of 195 ± 49.2 h (human, male; oral, 160 mg, single dose, fed).
`C#CCOc1ccc(/C=C2\SC(=O)N(CC(=O)NCc3ccccc3)C2=O)cc1` gave a correlation volume of 2720 cm³/mol (inverse Kirkwood-Buff integrals; binary solvent mixture; concentration not given, 298.15 K, mole fraction x1 0.25).
`[Ru+2].c1ccc(-c2cccc(-c3ccccn3)n2)nc1.c1ccc2nc(-c3nc4ccccc4s3)ccc2c1.c1cnccn1` — result for “photosubstitution quantum yield”: 0.0368 (water; 470 nm light).
With `Cc1ccc(OCC(=O)O)cc1` the AUC(0-last) ratio was 890 (Sprague-Dawley rat, female, plasma; oral gavage, 30 mg/kg of parent drug; reference: compound over parent drug).
`Cn1c(=O)oc2ccc(-c3ccc(CC(C#N)NC(=O)C4CNCCCO4)c(F)c3)cc21` (stereo not shown) — result for “triglycerides increased incidence”: 33.3% (human; oral, 40 mg once daily, treatment-related AE, multiple ascending dose).
For `Fc1cc2scnc2cc1Nc1ncnc2sc(C3=CCCNC3)cc12`, the intrinsic clearance was < 12 mL/min/g protein (human liver microsomes; 1 µM).
With `CC(C)C[C@H](NC(=O)C[C@H](O)[C@H](CC(C)C)NC(=O)[C@H](Cc1c[nH]cn1)NC(=O)CNC(=O)[C@@H](NC(=O)[C@H](C)NC(=O)[C@H](Cc1c[nH]c2ccccc12)NC(=O)[C@H](CCC(N)=O)NC(=O)[C@@H](Cc1ccccc1)NC(=O)CCNC(=O)CCNC(=O)CN1CCN(CC(=O)O)CCN(CC(=O)O)CCN(CC(=O)O)CC1)C(C)C)C(N)=O` [lutetium-177 labelled] the absorbed dose was 4.8 Gy (MIRD; mouse PC-3 xenograft, pancreas; intraperitoneal, 50 MBq, with PA).
Under “freeze-thaw stability deviation”, `Oc1ccc2ccccc2c1/N=N/c1ccc(/N=N/c2ccccc2)cc1` is recorded as -0.7% (rat whole blood; 16.0 µg/L, freeze-thaw cycle 1).
The Tmax of `CC(C)(O)c1ncc([S@](N)(=O)=NC(=O)Nc2c3c(cc4c2CCC4)CCC3)s1` is reported as 1.5 to 3 h (healthy humans; oral, 30 to 600 mg, suspension, median range).
With `C[Si](C)(C[C@@H](CN)CC(=O)O)C1CC1` the performance time was 180 s (neuromuscular coordination; Wistar rat male; oral, 100 mg/kg, 1 h).
Under “elimination rate constant”, `N=C(N)NCCC[C@@H]1NC(=O)[C@H](Cc2c[nH]c3ccccc23)NC(=O)[C@@H](CC2CCCCC2)NC(=O)[C@@H]2CCCN2C(=O)[C@@H](NC(=O)CCc2ccccc2)CCCNC1=O` is recorded as 0.00025 s⁻¹ (C57BL/6J mice, brain; intraperitoneal, 1 mg/kg, two-compartment model).
`COc1cc(C)c(Cc2ccc(O)cc2)cc1[C@@H]1S[C@H](CO)[C@@H](O)[C@H](O)[C@H]1O` has a Tmax of 4.75 ± 1.83 h (Japanese T2DM patients, plasma; 1 mg luseogliflozin, day 1, once daily).
Under “grade 3 anaemia incidence”, `CC(C)c1cnc(-c2cc(Cl)ccc2F)cc1Nc1ccncc1C(=O)NC(CO)CO` is recorded as 9.5% (human, advanced solid tumour; oral, dose not given, phase I monotherapy).
For `CC(C)CCCC(C)CCCC(C)CCO[C@@H]1O[C@H](CO)[C@@H](O[C@H]2O[C@H](CO)[C@@H](O)[C@H](O)[C@H]2O)[C@H](O)[C@H]1O` (stereo partly shown), “equilibrium surface tension” read 47 mN/m (dynamic surface tension; 0.0018 mmol/L).
`COc1ccc(-c2ccn(CC[C@](C)(C(=O)NO)S(C)(=O)=O)c(=O)c2)c(F)c1` gave a free AUC of 5460 ± 770 ng·h/mL (CF-1 mouse, female; subcutaneous, 75 mg/kg).
With `COC(=O)C1OC(Oc2c(-c3ccccc3)oc3cc(O)c(O)c(O)c3c2=O)C(O)C(O)C1O` (stereo not shown) the organ weight was 1.4 ± 0.1 g (BALB/c mouse, kidney; 1 mg/kg).
For `CCCC(CCC)NC(=O)c1ccc(OC2OC(C(=O)O)C(O)C(O)C2O)c(OC)c1` (stereo not shown), the AUC(0-last) ratio was 3.97 (male Sprague-Dawley rats, plasma; oral, 200 mg/kg of parent drug; reference: 200 over 20 mg/kg dose).
`CCCC[C@@H]1NC(=O)[C@@H](NC(=O)[C@H](CCC(=O)O)NC(=O)CNC(=O)CN2CCN(CC(=O)O)CCN(CC(=O)O)CCN(CC(=O)O)CC2)CCCCNC(=O)C[C@@H](C(N)=O)NC(=O)[C@H](C(C)C)NC(=O)[C@@H]2CCCN2C(=O)[C@H](CCCNC(=N)N)NC(=O)CNC(=O)[C@H](Cc2c[nH]c3ccccc23)NC(=O)[C@H](CCCNC(=N)N)NC(=O)[C@@H](Cc2ccccc2)NC(=O)[C@H](Cc2c[nH]cn2)NC(=O)[C@H](CCC(=O)O)NC1=O` [gallium-67 labelled] has a tissue uptake of 0.09 ± 0.06 %ID/g (C57 mice, B16/F1 flank melanoma, muscle; intravenous, 2 h, added: blocking peptide 10 µg).
`CC(C)C[C@@H](NC(=O)[C@H](NC(=O)[C@H]1CCCN1)[C@H](C)O)C(=O)N[C@H](Cc1c[nH]cn1)C(=O)N[C@@H](C(=O)N[C@H](Cc1c[nH]cn1)C(=O)N[C@H](CC(N)=O)C(=O)N[C@H](CCCNC(=N)N)C(=O)N[C@H](CCCNC(=N)N)C(=O)N[C@H](CCCNC(=N)N)C(=O)N[C@H](CCCNC(=N)N)C(=O)N[C@H](CCCNC(=N)N)C(N)=O)[C@H](C)O` gave an AUC(0-t) of 3340 ± 1370 ng·h/mL (Beagle dog, plasma; oral, 20 mg/kg, single dose).

Some of these lines once more:
For `Fc1cc2scnc2cc1Nc1ncnc2sc(C3=CCCNC3)cc12`, the intrinsic clearance was < 12 mL/min/g protein (human liver microsomes; 1 µM).
With `CC(C)C[C@H](NC(=O)C[C@H](O)[C@H](CC(C)C)NC(=O)[C@H](Cc1c[nH]cn1)NC(=O)CNC(=O)[C@@H](NC(=O)[C@H](C)NC(=O)[C@H](Cc1c[nH]c2ccccc12)NC(=O)[C@H](CCC(N)=O)NC(=O)[C@@H](Cc1ccccc1)NC(=O)CCNC(=O)CCNC(=O)CN1CCN(CC(=O)O)CCN(CC(=O)O)CCN(CC(=O)O)CC1)C(C)C)C(N)=O` [lutetium-177 labelled] the absorbed dose was 4.8 Gy (MIRD; mouse PC-3 xenograft, pancreas; intraperitoneal, 50 MBq, with PA).
Under “freeze-thaw stability deviation”, `Oc1ccc2ccccc2c1/N=N/c1ccc(/N=N/c2ccccc2)cc1` is recorded as -0.7% (rat whole blood; 16.0 µg/L, freeze-thaw cycle 1).
The Tmax of `CC(C)(O)c1ncc([S@](N)(=O)=NC(=O)Nc2c3c(cc4c2CCC4)CCC3)s1` is reported as 1.5 to 3 h (healthy humans; oral, 30 to 600 mg, suspension, median range).
With `C[Si](C)(C[C@@H](CN)CC(=O)O)C1CC1` the performance time was 180 s (neuromuscular coordination; Wistar rat male; oral, 100 mg/kg, 1 h).
